# Measured values of several laboratories.
# A part holds a random share of what one study measured.

# Series 1
# Target: Prothrombin, mature alpha-thrombin (F2, Homo sapiens, UniProt P00734)
# Technique: aptamer microarray, sandwich
# Form: DNA with 2'F-ANA
# Medium: in vitro
# Concentration: 200 nM
# Setting: whole 15-mer aptamer, many near background
# Together with: Cy3 exosite-II aptamer, 400 nM
# Reading: higher = stronger binding
# Strand: GGTTGGTGTGGTTGG
Modification,mean fluorescence intensity
2'F-ANA at 3 5 10 11,89.1 a.u.
2'F-ANA at 2 5 7 8 9 10 12 14 15,59.1 a.u.
2'F-ANA at 2 4 8 9 12 13 14,99.4 a.u.
2'F-ANA at 3 4 6 7 9 12 13 15,518 a.u.
2'F-ANA at 2 3 4 8 9 11 12,811 a.u.
2'F-ANA at 1 4 7 9 12 14,57.7 a.u.
2'F-ANA at 4 5 6 8 9 10 11 12 14 15,47.4 a.u.
2'F-ANA at 5 7 9 10 11 13,48 a.u.
2'F-ANA at 1 2 3 4 5 7 9 11 13 15,50.2 a.u.
2'F-ANA at 2 3 4 5 6 10 11 12,56.8 a.u.
2'F-ANA at 1 2 4 5 6 12,96.8 a.u.
2'F-ANA at 2 3 4 6 9 11 13,362 a.u.
2'F-ANA at 1 2 4 5 6 7 8 10 15,54 a.u.
2'F-ANA at 1 2 3 7 10 11 12 14 15,75.6 a.u.
2'F-ANA at 1 4 9 11 12 13 14,54.2 a.u.
2'F-ANA at 1 3 4 6 7 8 11 15,178 a.u.
2'F-ANA at 1 2 3 6 8 11 14 15,69.2 a.u.
2'F-ANA at 1 2 6 9 11 12 14 15,64.5 a.u.
2'F-ANA at 1 6 7 10 12 13 14,49.5 a.u.
2'F-ANA at 2 8 11 13 14,141 a.u.
2'F-ANA at 1 4 6 7 8 10 11 13,51.7 a.u.
2'F-ANA at 6 8 9 14 15,164 a.u.

# Series 2
# Target: Interferon regulatory factor 3, full length, phosphomimetic (IRF3, Homo sapiens, UniProt Q14653, residues 1-427, S386D/S396D/S398D/S402D/T404D/S405D)
# Technique: protein-binding microarray
# Form: double-stranded DNA, one strand shown
# Medium: in vitro
# Concentration: 2540 nM top
# Setting: 60-bp whole probe
# Together with: salmon DNA 0.4 mg/ml
# Baseline: random background probes
# Reading: higher = stronger binding
# Shared flanks, not repeated: GCCTAGCAC … GTCTTGATTCGCTTGACGCTGCTG
# Target sequence (chain): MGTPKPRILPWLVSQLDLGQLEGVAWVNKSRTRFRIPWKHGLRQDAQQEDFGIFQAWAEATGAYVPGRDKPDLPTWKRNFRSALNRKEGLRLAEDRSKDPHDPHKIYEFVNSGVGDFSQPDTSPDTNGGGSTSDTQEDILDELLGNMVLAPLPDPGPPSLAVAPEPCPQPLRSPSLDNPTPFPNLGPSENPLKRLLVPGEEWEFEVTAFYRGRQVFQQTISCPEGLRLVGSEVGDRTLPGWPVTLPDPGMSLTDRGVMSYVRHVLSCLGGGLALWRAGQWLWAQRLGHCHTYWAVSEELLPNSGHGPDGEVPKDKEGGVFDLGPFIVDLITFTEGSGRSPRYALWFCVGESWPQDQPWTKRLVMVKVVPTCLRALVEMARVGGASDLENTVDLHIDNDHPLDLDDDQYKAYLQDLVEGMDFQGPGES
Strand,fitted relative affinity [z-score]
TTAGATTCCAGTTTAGATTAGTGCTAG,3.23
GACGGACTGGACCATCGGGACGTGCTA,-0.581
TCATCTCCCAGACTGGAGTGGTGCTAG,0.831
TTAGGACCGGGGACTGGGTTAGTGCTA,-0.988
GACGGTATCGACACTGGGGTCGTGCTA,0.608
GACGGCTCCCTTTTCCTGACGTGCTAG,2.76
GACGATTTCGCGTTTCGAGACGTGCTA,1.71
GACGGTTTCGGTCTCGGGTCGTGCTAG,8.35
TCAGTGCTCATTTTTTTACTGTGCTAG,0.133
AGATACCTTTAACAGTGCCTGTGCTAG,1.09
GACGGTATCGGGTATCGGGAAGTGCTA,1.96
TTAGGGCTGGACTTTCGGTTAGTGCTA,0.526
GACGATCTCATTCTCGAGACGTGCTAG,1.73
GACGGAATCCTTCTCCTGACGTGCTAG,3.43
TTAGTACTGAGTTTCGATTAGTGCTAG,2.63
TATTACCTCATCTTTCCCTGCGTGCTA,1.22
CGTATCTTCATTGTCATGTAGTGCTAG,1.3
GACGATCTCAGACTGGTGACGTGCTAG,0.304
TTAGCTTTCGGGACTGGATTAGTGCTA,1.57
TTAGGACAGCTACTGCTTTAGTGCTAG,-0.619
TTACATTTCAGTTTCGATTAGTGCTAG,5.16
TAAGGACTGGGTCTCGGTTAGTGCTAG,-0.617
CCGAGTCCCTATCTCCTCACGTGCTAG,0.913
TTGCATCTGGGTATTTTTCTGTGCTAG,-0.212
GACGATTTCGGGACTGGAGGCGTGCTA,1.85

# Series 3
# Target: RNA binding protein fox-1 homolog 2, RRM domain, GST-SBP tag (RBFOX2, Homo sapiens, UniProt O43251-10, residues 100-194)
# Technique: RNA Bind-n-Seq
# Form: RNA
# Medium: in vitro
# Concentration: 365 nM
# Setting: natural RNA segment, single round, ends assumed
# Baseline: no-protein control
# Reading: higher = stronger binding
# Target sequence (chain): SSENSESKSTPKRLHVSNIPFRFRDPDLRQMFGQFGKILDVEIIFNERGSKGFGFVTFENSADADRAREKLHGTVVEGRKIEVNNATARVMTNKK
Strand,RBNS enrichment (R)
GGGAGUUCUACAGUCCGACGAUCUGUGUGUUGAGGCUAAGUUGGUGGGUUGGGUUGGCUUCUUAACAUCAAGAAACUGAAUGGAGCUCCACACCUCUAGAUCUCAAUGAUUCGGUUGGCUUCUCAGUGGAACCUGGAAUUCUCGGGUGCCAA,0.756
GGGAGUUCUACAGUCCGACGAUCGCCUUAGAGUAAGUGGAAAGGACUUCUAAAAUGUGUGUGUGCUUUGCCUUCCAGAAAGCCAUCUUUGGGCUACUGUAAUAUGACAAAUAAAAUCCUCACUGUGUGCAUCCUGGAAUUCUCGGGUGCCAA,0.698
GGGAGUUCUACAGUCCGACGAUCGAAACUGAGGGGCAAGAUAACCCCCACAUGACACGUGACAUCACUUUGGGGACAGCCCAGUUGCCAUUGUGGGACAGAACCCCAGUCCUGCGUUUCAGGGACAUGGGGAGUGGAAUUCUCGGGUGCCAA,0.481
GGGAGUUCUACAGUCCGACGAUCUCGGCCUUCGUGUAUGGUUUCACCUUCCCAUGCUGCACUCUUUCCUGAGCCAUGUGGGAGUCGUGUGAAUGACCAAGGCAGAUGCUAGCAAGUGGUGCUUCCUUCUCAGCUGGAAUUCUCGGGUGCCAA,0.308
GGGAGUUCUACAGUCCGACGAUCCUAGACAGUAUUGCCACCUCUGGCCAAAUAUGCACUUUCCCUAGAAAGCCAUAUUCCAGCAGUGAAACUUGUGCUAUAGUGUAUACCACCUGUACAUACAUUGUAUAGGCUGGAAUUCUCGGGUGCCAA,0.203
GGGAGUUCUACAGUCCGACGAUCUACUUAAUGAAAUGGACUUUUUGGAAAGAAAUCAGAUGAAGGCAUAAAAUUUAGUUCUUAGCUCUUGAACAGAAGCCUAAAAUUCCUGGUUCUCUCAGGGCUUCGCCUUCUGGAAUUCUCGGGUGCCAA,0.51
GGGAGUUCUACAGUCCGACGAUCAUAUGUGUAUUUGAUAGGUGGGAUUCUGGGUCAGUGAUAAAAAAGGAUUGUAACAGGAUUGAUGGCACUUAGGGACAUCUCAUCCAACCGGGACUUAAAUUUCACACUAGUGGAAUUCUCGGGUGCCAA,0.719
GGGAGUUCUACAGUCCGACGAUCAUACGAGUGGUGAGAGAGGGCAUCCCUGUCUUGUGCCAGUUUUCAAAGGGAAUGCUUCCAGUUUUUGCCCAUUCAGUAUGAUAUUGGCUGUGGGUUUGUCAUAGAUAGCUUGGAAUUCUCGGGUGCCAA,0.914
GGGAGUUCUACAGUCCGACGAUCUGUAAUCAUAAAAUAACAGUAAAUUCCAAACCUCAAAAACUAUUAUGGCCUGAGCACAGCUGAAAUCUAGCAGAGUUUAACUCUUCUGCCUCCAUGUCUGUCACUUAUAAUGGAAUUCUCGGGUGCCAA,0.441
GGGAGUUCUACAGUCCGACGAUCCUGUUUUUAAUUAACAAUUGGAUUUUAUUGGAAGAAGAAAAAGCAGUUUCAUUAUUUUGGAUGAUGAUGCAGAGACUCAUGUUAAUGAACUCGAAAAUGGUGUUGCUUCAUGGAAUUCUCGGGUGCCAA,0.474
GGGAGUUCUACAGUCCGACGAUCCACUGAAUCCCGAGGAGAGGCUGAAAAAAUCAGAGUAGAAACCAGCAACAUUUACAAGUGUGUCUGGAGUAAUCCUGUUUCCUCCCAGCUGCAAAGCUUCUCUCAAGUUCUGGAAUUCUCGGGUGCCAA,0.246
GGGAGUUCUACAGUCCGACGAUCUUUAAUUUCUAACCCUACCACAUCACAUCCAGUUUAUGAUUUUUCCAGAGGCUCAAAGCCAGAACCUCCUGCAUGUUGGACAAGCACUCUACCAACUGAGCUACAUCCCCUGGAAUUCUCGGGUGCCAA,5

# Series 4
# Target: TAR DNA-binding protein 43, full length, His tag (TARDBP, Homo sapiens, UniProt Q13148, residues 1-414)
# Technique: RNA Bind-n-Seq
# Form: RNA
# Medium: in vitro
# Concentration: 20 nM
# Setting: 6-mer, flanks averaged, single round
# Together with: 150 mM LiCl
# Baseline: input library
# Reading: higher = stronger binding
Strand,6-mer enrichment (R)
UAACGU,0.887
GCGGAC,1.07
AGUGGA,1.11
CGAGAG,0.968
UGCCUA,0.937
GGCCGC,1.03
CUACGA,0.795
UCGUCA,0.924
GUGACU,0.963
AACCGA,0.782
GACGCG,0.97
CAAAUU,0.925
UUAAGC,0.919
CACUUC,0.854
ACGCGC,0.908
GAGCUG,0.992
CACUCU,0.873
AGAGAU,0.919
UCUGAA,0.852
CGCGUU,0.966

# Excerpt of the above (series 2):
Strand,fitted relative affinity [z-score]
AGATACCTTTAACAGTGCCTGTGCTAG,1.09
TTAGTACTGAGTTTCGATTAGTGCTAG,2.63
TTGCATCTGGGTATTTTTCTGTGCTAG,-0.212
TTAGCTTTCGGGACTGGATTAGTGCTA,1.57
GACGGTATCGGGTATCGGGAAGTGCTA,1.96
TTACATTTCAGTTTCGATTAGTGCTAG,5.16
GACGGCTCCCTTTTCCTGACGTGCTAG,2.76
GACGGACTGGACCATCGGGACGTGCTA,-0.581
GACGGTTTCGGTCTCGGGTCGTGCTAG,8.35
CCGAGTCCCTATCTCCTCACGTGCTAG,0.913
